# Published values of several laboratories.
# Numbered parts are unrelated; each lists some results of a single study.

# Block 1
# Target: Sal-like protein 4, full length isoform A (SALL4, Homo sapiens, UniProt Q9UJQ4, residues 1-1053)
# UniProt Q9UJQ4, sequence (whole entry, looked up): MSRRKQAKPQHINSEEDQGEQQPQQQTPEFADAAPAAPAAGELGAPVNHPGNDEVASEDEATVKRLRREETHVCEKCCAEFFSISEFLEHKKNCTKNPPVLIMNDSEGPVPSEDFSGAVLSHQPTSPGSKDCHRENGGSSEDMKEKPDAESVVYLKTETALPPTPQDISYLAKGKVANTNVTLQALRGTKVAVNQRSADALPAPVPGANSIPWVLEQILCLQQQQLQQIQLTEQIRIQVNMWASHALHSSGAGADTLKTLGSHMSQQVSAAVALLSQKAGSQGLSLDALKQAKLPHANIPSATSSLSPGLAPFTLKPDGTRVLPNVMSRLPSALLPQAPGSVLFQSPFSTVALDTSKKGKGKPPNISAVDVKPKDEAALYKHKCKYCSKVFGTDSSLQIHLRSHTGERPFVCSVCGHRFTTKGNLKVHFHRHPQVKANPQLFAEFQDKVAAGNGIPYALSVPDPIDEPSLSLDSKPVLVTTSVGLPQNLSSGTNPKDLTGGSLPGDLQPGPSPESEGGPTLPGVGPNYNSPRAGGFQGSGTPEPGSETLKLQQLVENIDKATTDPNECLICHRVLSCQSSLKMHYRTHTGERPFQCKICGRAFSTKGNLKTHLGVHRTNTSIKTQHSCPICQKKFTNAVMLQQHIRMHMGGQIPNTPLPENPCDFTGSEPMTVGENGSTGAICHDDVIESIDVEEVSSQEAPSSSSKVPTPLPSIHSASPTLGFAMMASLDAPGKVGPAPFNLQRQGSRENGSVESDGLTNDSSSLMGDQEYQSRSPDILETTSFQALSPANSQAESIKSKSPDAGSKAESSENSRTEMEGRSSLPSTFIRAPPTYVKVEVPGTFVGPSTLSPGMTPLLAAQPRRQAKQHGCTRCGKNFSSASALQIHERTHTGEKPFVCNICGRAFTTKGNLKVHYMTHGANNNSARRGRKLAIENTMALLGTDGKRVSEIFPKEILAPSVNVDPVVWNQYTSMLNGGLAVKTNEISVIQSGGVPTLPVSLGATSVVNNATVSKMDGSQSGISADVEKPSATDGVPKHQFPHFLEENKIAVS
# Technique: universal PBM
# Molecule type: double-stranded DNA, one strand shown
# Matrix: in vitro
# Concentration: 600 nM
# Notes: 8-mer, flanks averaged, mean of replicates
# Reading: higher = stronger binding
Strand,E-score
AGGCAAGA,0.128
ATGGTTCA,0.0298
GAATTTGA,0.131
ACATGGCA,0.00295
ATTGACAC,0.0548
AGGAAGAG,-0.0494
GAACACTA,0.0723
ATAAAAAT,0.404
ACCTGCAG,-0.199
AATGGGGC,-0.258
CCTTCGGA,-0.27
CCGTTTGC,-0.263
CACCAAGC,-0.21
ATCTGGTC,-0.0423
CCTGAGTC,-0.227
CGGGAGTC,-0.2

# Block 2
# Target: Interferon regulatory factor 7, full length, phosphomimetic (IRF7, Homo sapiens, UniProt Q92985, residues 1-503, S471D/S472D/S475D/S476D/S477D/S483D/S484D/S487D)
# Technique: protein-binding microarray
# Molecule type: double-stranded DNA, one strand shown
# Matrix: in vitro
# Concentration: 2200 nM top
# Notes: 60-bp whole probe
# With: salmon DNA 0.4 mg/ml
# Reference: random background probes
# Reading: higher = stronger binding
# Constant ends, left off below: GCCTAGCAC … GTCTTGATTCGCTTGACGCTGCTG
# Construct (chain): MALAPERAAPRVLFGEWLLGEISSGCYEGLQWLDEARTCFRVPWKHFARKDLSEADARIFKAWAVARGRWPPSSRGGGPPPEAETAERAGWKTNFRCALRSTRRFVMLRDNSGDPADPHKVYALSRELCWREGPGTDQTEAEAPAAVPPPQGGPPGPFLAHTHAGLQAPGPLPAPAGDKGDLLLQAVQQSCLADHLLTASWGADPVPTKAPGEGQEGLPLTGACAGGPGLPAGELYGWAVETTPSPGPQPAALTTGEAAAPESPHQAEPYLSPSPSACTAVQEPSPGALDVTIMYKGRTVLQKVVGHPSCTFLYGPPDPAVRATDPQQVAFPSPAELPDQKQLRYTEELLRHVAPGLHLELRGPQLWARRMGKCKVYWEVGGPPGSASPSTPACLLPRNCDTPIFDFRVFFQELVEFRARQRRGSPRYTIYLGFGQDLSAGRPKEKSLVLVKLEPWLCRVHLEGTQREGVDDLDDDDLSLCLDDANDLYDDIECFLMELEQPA
Strand,fitted relative affinity [z-score]
TTAGGTTTCGGTTTCGGTTTGTGCTAG,20.1
GTAGGACTGGGTTTCGGTTAGTGCTAG,3.61
TTAGGACTGGGTATCGCTTAGTGCTAG,-0.32
GAGGATATCGGGTTTCGAGACGTGCTA,1.36
GTTTTTTAAAGTTTCAGTGAGTGCTAG,0.546
TTAGGTTTCGGGAGTGGGTTAGTGCTA,2.37
GACAGACTGGGACTGGGGACGTGCTAG,-0.916
GACGGTATCGGGATTCGGGACGTGCTA,0.148
TTAGGACTCGGTTTCGGTTAGTGCTAG,7.3
TTAGAACTTAGTTTCGATTAGTGCTAG,6.05
TCAACTTTCTGAATGCCACTGTGCTAG,4.31
TCATTTCCATTTTCTGAAACTGTGCTA,3.92
CAAGTTACCCACCTCAGGTAGTGCTAG,0.723
TCATCATTGCCTATTTTTCAGTGCTAG,1.69
CACGGTATCGACACTGGGGACGTGCTA,-0.118
TGGATACTTTGCTGAACATCGTGCTAG,0.288
GACGGATTCCTTTCCCTGACGTGCTAG,2.02
GACGATTTAAGTTCCGAGACGTGCTAG,0.46

# Block 3
# Target: Histone acetyltransferase KAT6A, winged helix 2, GST fusion (KAT6A, Homo sapiens, UniProt Q92794, residues 85-181)
# Technique: protein binding microarray
# Molecule type: double-stranded DNA, one strand shown
# Matrix: in vitro
# Concentration: not given
# Notes: 8-mer, flanks averaged, mean of 2 arrays, mostly near background
# Reference: not given
# Reading: higher = stronger binding
# Target sequence (chain): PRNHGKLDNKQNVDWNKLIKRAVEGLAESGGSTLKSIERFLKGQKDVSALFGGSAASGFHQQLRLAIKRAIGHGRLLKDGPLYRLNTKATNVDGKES
Strand,E-score
GCACGTCA,-0.179
ATTCTCCC,0.0513
ATTTAGTA,0.151
AAGCTGAA,0.0397
ATCTCCAT,-0.0505
AGTCGTCA,-0.19
CCAGGCTA,0.0616
GGTGCAAC,0.0634
ATAACAGA,-0.114
ATCTGTGG,-0.29
CCAACCGG,0.0935
AGCACTTG,-0.196
AATCTCCT,0.0589
GCTTGAAA,0.143
AAACGCCG,0.136
GCTACAAC,-0.0063
CCGTAACG,-0.188
GAAGTCAC,-0.139
TACACCAA,-0.123
AAACGTTG,-0.205
CTCTCGCC,0.0634
CACTAGGA,-0.0831

# Block 4
# Target: Centromere-binding protein 1, full length, N-terminal tag (CBF1, Saccharomyces cerevisiae, UniProt P17106, residues 1-351)
# UniProt P17106, sequence (whole entry, looked up): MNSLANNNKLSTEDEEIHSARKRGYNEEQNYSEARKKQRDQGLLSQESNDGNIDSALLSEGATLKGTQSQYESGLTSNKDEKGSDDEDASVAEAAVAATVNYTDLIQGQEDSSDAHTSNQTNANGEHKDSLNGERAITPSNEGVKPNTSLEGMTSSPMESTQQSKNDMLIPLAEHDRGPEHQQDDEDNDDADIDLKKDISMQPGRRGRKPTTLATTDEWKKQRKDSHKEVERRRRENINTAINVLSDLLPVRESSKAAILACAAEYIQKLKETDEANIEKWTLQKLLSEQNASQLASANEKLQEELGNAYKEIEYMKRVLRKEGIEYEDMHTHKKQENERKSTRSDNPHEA
# Technique: protein-binding microarray
# Molecule type: double-stranded DNA, one strand shown
# Matrix: in vitro
# Concentration: 0.8 µM
# Notes: whole 60-bp probe, no competitor
# Reading: higher = stronger binding
Strand,fluorescence intensity [a.u.]
CTAGAATTCGTAGGTGCAGGTGAGCATATTGCCTTCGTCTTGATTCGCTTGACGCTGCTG,543
GAATTTAACTTAAACCCCGTGTTTAGCGAAATTTAGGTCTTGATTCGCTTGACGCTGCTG,823
GAATTTAGTTTTTTTCTGGTGGTTGTCAAGCCTTAGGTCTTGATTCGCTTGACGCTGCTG,503
CCTAACTACTATATGCACATGTGATAGCTTCGTACAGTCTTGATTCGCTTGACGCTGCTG,2760
GAAGAGGCTGCTTATGTCGTGATGCTTATACTATAGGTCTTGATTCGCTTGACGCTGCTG,622
GAATTTTATCTAAATCATATGAGGAACGCTAGGTAGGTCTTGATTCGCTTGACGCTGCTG,570
TGTACGAAGCTATTCAACGTGAATATAGTAGTTAGGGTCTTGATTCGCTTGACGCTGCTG,567
GAAAATTACCATCATGACGTGCTCCTATCAAAGTAGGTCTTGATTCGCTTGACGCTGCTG,561
TGTACGAAGCTATGGCGCGTGTTTATAGTAGTTAGGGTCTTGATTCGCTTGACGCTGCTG,575
CTAAGGCGATGCTAACGTGTGTTTACTGTTTTATTCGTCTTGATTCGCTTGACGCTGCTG,490
TGTACGAAGCTATGTTATCAGCTTATAGTAGTTAGGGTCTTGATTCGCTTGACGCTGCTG,512
GAAGTTCACCGTTTTCACGTGCACAAATTCGAGTAGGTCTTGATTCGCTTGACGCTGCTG,4550
CTAAACTTGTACTTGCACATGTATCTTATTGTTTTCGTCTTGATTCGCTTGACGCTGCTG,716
GAATATATATCAACTCACCTGGTATAGGGATCATAGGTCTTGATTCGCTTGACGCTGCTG,577
GAAATACGTCTTTGGCACGCGATTGAAACGCGCTAGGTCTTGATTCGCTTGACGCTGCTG,746
CTACCCCCATGCACTGATGGCGCTTGTATATAGTTCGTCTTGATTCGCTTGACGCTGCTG,517
CTAAGCACTCGCTATTTCGTGACAACGTTCCAGTTCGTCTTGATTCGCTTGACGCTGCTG,540
GAAAAGAGCTACGAGCACGTGCAAATATATGAATAGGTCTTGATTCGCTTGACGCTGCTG,13100
CTATTTTTTGTGGGTGTCACCACGCTAGCGCTTTTCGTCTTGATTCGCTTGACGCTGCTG,513
GAAACGCTTTTACTTCACCCCATCTTATACTATTAGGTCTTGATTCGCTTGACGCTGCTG,536
CTAATAAGGTGTCAGCATGTGGGGTGAGGATAATTCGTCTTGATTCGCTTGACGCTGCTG,573
GAATACGTTTTCAATCACGACCAAGAGTAAGGTTAGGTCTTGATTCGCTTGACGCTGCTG,627
CTAGAGATAGCTGGTCATCACAATAGATCAGCCTTCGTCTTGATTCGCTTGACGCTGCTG,489
GAACACGTTACTAATTACGTGAAGTTTGTGATCTAGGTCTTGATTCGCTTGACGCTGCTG,766
CTACAATCATTCGCGCACGAGGCATGGACAGAATTCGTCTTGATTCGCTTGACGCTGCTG,827

# Block 5
# Target: RING finger protein unkempt homolog, zinc fingers 1-6, SBP tag (UNK, Homo sapiens, UniProt Q9C0B0, residues 30-357)
# UniProt Q9C0B0, sequence (30-357, looked up): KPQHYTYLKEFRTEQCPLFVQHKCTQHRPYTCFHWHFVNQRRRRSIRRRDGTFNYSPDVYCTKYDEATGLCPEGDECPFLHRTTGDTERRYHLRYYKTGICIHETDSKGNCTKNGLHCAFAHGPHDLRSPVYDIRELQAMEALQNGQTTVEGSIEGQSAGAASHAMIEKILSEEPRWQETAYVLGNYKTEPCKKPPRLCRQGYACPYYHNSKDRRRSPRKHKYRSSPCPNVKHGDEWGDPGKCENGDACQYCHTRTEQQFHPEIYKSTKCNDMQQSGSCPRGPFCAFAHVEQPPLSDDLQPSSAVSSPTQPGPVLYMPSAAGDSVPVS
# Technique: RNA Bind-n-Seq
# Molecule type: RNA
# Matrix: in vitro
# Concentration: 100 nM
# Notes: RNA with constant flanks, vertebrate orthologous sites, ends assumed
# Reference: input RNA pool
# Reading: higher = stronger binding
Strand,bound/input enrichment [ratio]
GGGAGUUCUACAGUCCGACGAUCAGGGCUGUGUAGAGUAGGGCUGUGUUCUCCUUAGGAUGUUGCUUCUUGAUUUUUUUUUUUUAGGGGUGGGUCAGGGUUGUGACACACCAGCCCAGGCGAGAGCUGCUGUAGGUCACCUCACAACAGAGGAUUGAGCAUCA,3.07
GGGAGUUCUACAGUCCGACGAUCAUUUAGAAUGUUAAUAAAUUGCUCUGAGAUUCCUCAAGUCCAUUUUGUGAGAUCAGACCAUAGGUGGGUGUUGUUUCUUUUAAGUUUGUGUACUGCGUCCAAUGUUACAUUUUUAGAAGUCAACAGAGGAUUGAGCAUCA,3.52
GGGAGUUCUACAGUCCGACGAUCAUUAGCCACCUCUGAUCAAGGGACACCAAACGGAGCAAGGAGUAAAAUUGCUGCCAUGUGCACAAUGGCUACACCGCAGUCCCUCUUCAGUGUAAAACCAGCUGUGUGUAAGUGUUGAGGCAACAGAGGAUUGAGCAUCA,0.235
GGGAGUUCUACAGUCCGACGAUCAUUUGGACCUUGAAGCUCAAUCAGGGGACUAGAGAAGUAAAACAAACUUGUAAAAAUUAAUAGCCAUAUGCAACUGCACAACAGUACUGUCUUUCACACCUGUGCUAACAUAUUUAUGCACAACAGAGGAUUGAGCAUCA,0.832
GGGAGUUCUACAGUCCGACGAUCAGCAUCUGGUGAUAUUUGGCCUGGUCUUUCAGCAUAUGAUAAUAGCCCAAGAUCACCUCAUAGCCCUUCUCCUAUUGCUACACCACCUAGUCAAAGUUCAUCUUGUUCAGAUGCUCCCAUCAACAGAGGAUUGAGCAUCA,0.963
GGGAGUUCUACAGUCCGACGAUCCAUGCUUACGCUCUUCUAUGAGAGAGAUGAAUUGGGGAGAACUGUCUCUGUUUUAUAGAUUAAUUUCUUUCUAAAUUAUGACCAAAAAUAUUUUGCUAUUUCUUUCUUUGUAUAUGGACACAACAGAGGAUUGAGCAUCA,0.658
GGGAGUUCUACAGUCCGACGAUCGUCAUCUGACUGGAUGAAGACUGUUCCUAGUUAUAACCAAACAAAUAGCUCCAUGGACUUUAGAAAUUAUGUGAUGAGAGAUGAAAAUUUGGAACCACUCCCCAAAAACUGGGAAAUGGCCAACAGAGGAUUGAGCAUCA,1.54
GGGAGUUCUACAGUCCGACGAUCUGCAGGAAUGGCCCCCAUCCCACCUGUUUAUUCUGUAAACUACAGCCUGUAAAUAACAUUUAGCAUUCCUAUUGUAACAAAAUUAAUUUUUAUGAAAUAAAUUAUAUUUCCUAGUCUAAUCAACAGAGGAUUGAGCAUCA,1.19
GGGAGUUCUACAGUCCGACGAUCUUGUGAGGAAGGGGAAAGACUAGAUUCUUCUCUUCCCAAGUAAAACUGAAAUAAUUUGCUUUUAUUUCUGUCUUGGAAAACAAAGAUGGCCUUUUCUCUUAAUUGUGUAACAGUACCAUCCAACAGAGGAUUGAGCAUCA,0.282
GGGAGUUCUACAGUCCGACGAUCGGCUACAAGAGCUCACAAACUCAAAGGAAAACUAGUCAAGAGUUUCUAAUAGUUAAAAGCUAGGAAAGAUUAGGACAACUUUACAAAUGAGCAAUUAAAAAGAAAAAGGAUAUGGAAACUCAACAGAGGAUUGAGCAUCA,0.545
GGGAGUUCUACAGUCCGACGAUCCUCCCCCUUACCCCUAAAGUAGAACUUUUUAAAAUUAUGUCACCACCACUUGUAAAAAUUUAGCAAUAUUCGAAGAAAAUGCUCAUGAAGUAAGAAAUUCUGCUCAUGGUUUUGCAAAGCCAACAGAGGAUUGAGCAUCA,1.07

# A few entries again (block 2):
Strand,fitted relative affinity [z-score]
GAGGATATCGGGTTTCGAGACGTGCTA,1.36
GACGATTTAAGTTCCGAGACGTGCTAG,0.46
TCAACTTTCTGAATGCCACTGTGCTAG,4.31
GACGGTATCGGGATTCGGGACGTGCTA,0.148
GACGGATTCCTTTCCCTGACGTGCTAG,2.02
GACAGACTGGGACTGGGGACGTGCTAG,-0.916
CAAGTTACCCACCTCAGGTAGTGCTAG,0.723
TCATTTCCATTTTCTGAAACTGTGCTA,3.92
